Published values collected from several papers.
Each line is one published result; not all experiments were run side by side. ± marks the error that the study gave. ≈ marks a conversion by molar mass, not a printed value.

| Compound | target or system | test | system | conditions | scale | endpoint | value |
| --- | --- | --- | --- | --- | --- | --- | --- |
| O=Cc1c(O)ccc2ccccc12 | HUVEC | RNA sequencing, item: GIMAP4 |  | 75 µM, 24 h | relative to: DMSO | log2 fold change | -3.43 |
| CCN1CCN(Cc2ccc(C(=O)Nc3ccc(C)c(NCc4cnc5[nH]ccc5c4OC)c3)cc2C(F)(F)F)CC1 | HCT-116, overexpressing wild type | cell proliferation |  | 48 h |  | GI50 | 0.81 µM |
| CCCCC/C=C/C(=O)CCc1ccc(O)c(OC)c1 | mouse mAb 1-D6 | antibody binding, indirect competitive ELISA |  | together with: coating antigen 2-OVA |  | IC50 | 1.9 µg/mL (≈ 6.87 µM) |
| Fc1cccc(CNc2nc(NCc3ccccc3)c3ccccc3n2)c1 | SW-403 | cell growth or viability |  | 24 h |  | GI50 | 4.6 µM |
| C1=[N+]2CCCC[N+]3=Cc4ccc5[n]4[Au-]23[n]2c1ccc2-c1nc2ccccc2nc1-5.F[P-](F)(F)(F)(F)F | NCI60 human cancer panel |  |  | mean of all cell lines |  | GI50 | 7 µM |
| COc1cccc2c(NCc3ccccc3)nc(Nc3cccc(F)c3)nc12 | SW-403 | cell growth or viability |  | 72 h |  | GI50 | 4 µM |
| Cn1cc(-c2cc(N3CCCCS3(=O)=O)ccc2N[C@H]2CC[C@H](C)CC2)c2cc[nH]c2c1=O (stereo in doubt) | CHL | cell growth or viability, CCK-8 |  | 72 h |  | GI50 | 1.1 µM |
| Cc1cc(C)nc(SCC(=O)Nc2ncc(Cc3cccc(OCc4cn(Cc5ccc(C#N)cc5)nn4)c3)s2)n1 | HGC-27 | cell growth or viability, MTS |  |  |  | GI50 | 7.85 µM |
| CCCC(C)NC(=O)C(Nc1ccccc1C(=O)c1ccccc1)c1cn(C)c2ccccc12 (stereo not shown) | SJ-G2 | cell growth or viability, MTT |  | 72 h |  | GI50 | 6.7 µM |
| [64Cu+2].c1ccc(CNCc2ccc(CN3CCCN4CCNCCCN(CC4)CC3)cc2)nc1 | CXCR4 |  | NOD/SCID mouse, U87 and U87-stb-CXCR4 xenografts, lungs | iv, 90 min, ex vivo, together with: AMD3465 25 mg/kg sc before tracer |  | tissue uptake | 2.7 ± 0.24 %ID/g |
| CC(=C(c1ccc(O)cc1)c1ccc(Cl)cc1)c1ccc(Cl)cc1 | SF-268 | cell growth or viability, SRB |  |  |  | GI50 | 0.74 µM |
| COc1cccc(CNc2nc(NCc3ccccc3)c3ccccc3n2)c1 | SW-403 | cell growth or viability |  | 72 h |  | GI50 | 3 µM |
| CCC(=C(c1ccc(Cl)cc1)c1ccc(OCCCN(C)C)cc1)c1ccc(OC)cc1 | SF-268 | cell growth or viability, SRB |  |  |  | GI50 | 7.6 µM |
| NS(=O)(=O)Nc1ncnc(OCCOc2ncc(Br)cn2)c1-c1ccc(Br)cc1 |  | Michaelis-Menten plot, item: compound formation | female Sprague-Dawley rat, liver microsomes | 1500 mg/kg daily, 4 weeks |  | Vmax | 478 ± 27 pmol/min/mg |
| COc1cc(CCC(C)=O)ccc1O | mAb 5-D8 | antibody binding, indirect competitive ELISA |  | together with: coating antigen hapten 5-OVA |  | IC50 | > 4 µg/mL |
| CC/C=C\C/C=C\C/C=C\C/C=C\C/C=C\C/C=C\CCC(=O)Nc1ccn(C2OC(CO)C(O)C2(F)F)c(=O)n1 (stereo not shown) | SF-268 | cell growth or viability, SRB |  |  |  | GI50 | 0.0542 µM |

A few entries again:
| Compound | target or system | test | system | conditions | scale | endpoint | value |
| --- | --- | --- | --- | --- | --- | --- | --- |
| COc1cccc(CNc2nc(NCc3ccccc3)c3ccccc3n2)c1 | SW-403 | cell growth or viability |  | 72 h |  | GI50 | 3 µM |
| C1=[N+]2CCCC[N+]3=Cc4ccc5[n]4[Au-]23[n]2c1ccc2-c1nc2ccccc2nc1-5.F[P-](F)(F)(F)(F)F | NCI60 human cancer panel |  |  | mean of all cell lines |  | GI50 | 7 µM |
